# Published values from different studies.
# Each line is one published result; not all experiments were run side by side. ± marks the error that the study gave.
SMILES,assay,test system,conditions,quantity,result
COc1ccc(-c2c(-c3ccc(C#N)c(F)c3)nc(N3CCC(N)CC3)n(C)c2=O)cc1F,measured: Anemia,relapsed/refractory marginal zone lymphoma patients,"oral, 60 mg, grade 3 to 4, dose expansion",treatment-related adverse event incidence,0%
O=c1oc2c(O)c(O)cc3c(=O)oc4c(O)c(O)cc1c4c23,acute oral toxicity,BALB/c mice,"oral, dose not given",liver weight,1.38 g
COc1ncnn2ccc(-c3cnc4nc(C)n(Cc5nnc([C@@H](C)F)o5)c4c3)c12,,human,"oral, dose not given, grade 2",patients with taste disorder,7.1%
O=S(=O)(Nc1ccccc1)c1ccc(NC(=S)Nc2ccccc2)cc1,measured: TBIL,"male mouse, blood","oral, 5 mg/kg daily, 14 days",blood chemistry level,0.65 mg/dL
CC(C)C[C@H](NC(=O)[C@H](CCCCN)NC(=O)[C@H](CCCCN)NC(=O)[C@H](CCCNC(=N)N)NC(=O)[C@H](Cc1ccccc1)NC(=O)[C@H](CCCNC(=N)N)NC(=O)[C@H](CCCCN)NC(=O)[C@H](Cc1ccccc1)NC(=O)[C@H](CCCNC(=N)N)NC(=O)CN)C(=O)NCCCC[C@H](NC(=O)[C@H](CC(C)C)NC(=O)[C@H](CCCCN)NC(=O)[C@H](CCCCN)NC(=O)[C@H](CCCNC(=N)N)NC(=O)[C@H](Cc1ccccc1)NC(=O)[C@H](CCCNC(=N)N)NC(=O)[C@H](CCCCN)NC(=O)[C@H](Cc1ccccc1)NC(=O)[C@H](CCCNC(=N)N)NC(=O)CN)C(=O)NCCCC[C@H](NC(=O)[C@H](CCCCNC(=O)[C@H](CC(C)C)NC(=O)[C@H](CCCCN)NC(=O)[C@H](CCCCN)NC(=O)[C@H](CCCNC(=N)N)NC(=O)[C@H](Cc1ccccc1)NC(=O)[C@H](CCCNC(=N)N)NC(=O)[C@H](CCCCN)NC(=O)[C@H](Cc1ccccc1)NC(=O)[C@H](CCCNC(=N)N)NC(=O)CN)NC(=O)[C@H](CC(C)C)NC(=O)[C@H](CCCCN)NC(=O)[C@H](CCCCN)NC(=O)[C@H](CCCNC(=N)N)NC(=O)[C@H](Cc1ccccc1)NC(=O)[C@H](CCCNC(=N)N)NC(=O)[C@H](CCCCN)NC(=O)[C@H](Cc1ccccc1)NC(=O)[C@H](CCCNC(=N)N)NC(=O)CN)C(=O)NCCC(=O)O,,human red blood cells,"2 h, 37 °C",hemolytic concentration,~15 µM
C[C@@H]1OC(=O)NN=C1c1ccc(-c2ccc(F)cc2)c(C(F)(F)F)c1,"phase I trial, measured: Nausea all grades",human patients,"dose not given, all dose groups",patients with adverse event,40%
O=c1nc(NO)ccn1[C@@H]1O[C@H](CO)[C@@H](O)[C@H]1O,,rat maternal blood dialysate,"25 ng/mL, 6 h, 10 °C, low QC concentration, together with: molnupiravir",autosampler stability,97.5 ± 4.62%
O=C1Nc2cc3[nH]nc(-c4ccncc4)c3cc2CN1Cc1ccccc1,measured: Dyspnea,patients with advanced solid tumours,"intravenous, dose not given",patients with grade ≥3 TEAE,7%
O=c1ccc2cc3ccoc3cc2o1,post-procedure stability,rat plasma,"8 ng/mL, 1 h, room temperature",accuracy,87.3%
COc1cc2c(Oc3ccc4[nH]c(C)cc4c3F)ccnc2cc1OCC1(N)CC1,measured: grade 1 or 2 gingival bleeding,paediatric high-risk refractory sarcoma,8 mg,incidence of adverse event,20%
C[C@@H](c1ncncc1F)[C@](O)(Cn1cncn1)c1ccc(F)cc1F,,human,"oral, 200 mg, drug interaction trial",deaths,0%
C[C@]1(CO)Cc2ncn(-c3ccc(C#N)c(Cl)c3)c2C(=O)O1,investigator-assessed,"human, Chinese",80 mg single dose,subjects with drug-related TEAEs,50%
CN1CC[C@@H](c2c(O)cc(O)c3c(=O)cc(-c4ccc(C(F)(F)F)cc4Cl)oc23)[C@@H]1CO,measured: Anorexia,relapsed or refractory haematological malignancies,"oral, dose not given, grade ≥3",adverse event incidence,0%

# For quick reference, copied from above:
SMILES,assay,test system,conditions,quantity,result
O=c1oc2c(O)c(O)cc3c(=O)oc4c(O)c(O)cc1c4c23,acute oral toxicity,BALB/c mice,"oral, dose not given",liver weight,1.38 g
COc1ncnn2ccc(-c3cnc4nc(C)n(Cc5nnc([C@@H](C)F)o5)c4c3)c12,,human,"oral, dose not given, grade 2",patients with taste disorder,7.1%
